# Measurements of several laboratories.
# ± gives the spread as reported.
# Genome polyprotein NS2B-NS3 protease: Genome polyprotein, NS2B-NS3 protease (dengue virus type 2, UniProt P29990)
# Apeh: Acylamino-acid-releasing enzyme (Apeh, Mus musculus, UniProt Q8R146)
# TNKS: Poly [ADP-ribose] polymerase tankyrase-1 (TNKS, Homo sapiens, UniProt O95271)
# TACR2: Substance-K receptor (TACR2, Homo sapiens, UniProt P21452)
# HDAC11: Histone deacetylase 11 (HDAC11, Homo sapiens, UniProt Q96DB2)
# SIRT5: NAD-dependent protein deacylase sirtuin-5, mitochondrial (SIRT5, Homo sapiens, UniProt Q9NXA8)
SMILES,target,assay,test system,conditions,scale,inhibition
C=CC(=O)Nc1cc(-c2nn(C3CCN(CCNC(=O)[C@H](C)CCC45CC6CC(CC(C6)C4)C5)CC3)c3ncnc(N)c23)ccc1Oc1ccccc1,"[Pyruvate dehydrogenase (acetyl-transferring)] kinase isozyme 1, mitochondrial (PDK1, Homo sapiens, UniProt Q15118)","inhibitor, KiNativ profiling",biochemical,2 µM,,-25.3%
C/C=C/C(=O)Nc1ccc2nc(NCCCCCN(C)C)nc(NCCCCCCN(C)C)c2c1,"Histone-lysine N-methyltransferase 2A (KMT2A, Homo sapiens, UniProt Q03164)","enzyme activity, inhibitor, radiometric",,10 µM,,3%
Cc1nc2c(F)cc(-c3nc(Nc4ccc(CNC(=O)CCCCCCC(=O)NO)cc4)ncc3F)cc2n1C(C)C,"Serine/threonine-protein kinase ATR (ATR, Homo sapiens, UniProt Q13535)",kinase activity,,1 µM,,0%
Cc1ccc(-n2nc(C(=O)Nc3cccc(C(N)=O)c3)cc2-c2ccc(CC(C)C)cc2)cc1,Genome polyprotein NS2B-NS3 protease,"enzyme activity, fluorogenic AMC substrate",,50 µM,,98%
Cc1ccc(-c2nn(-c3ccc(S(C)(=O)=O)cc3)cc2/C=N/N=C2/NC(=O)CS2)cc1,"Epidermal growth factor receptor (EGFR, Homo sapiens, UniProt P00533)","kinase activity, inhibitor",,100 µM,,92.6%
CC(=O)N[C@H](C(=O)N[C@@H](CO)C(=O)N[C@@H](Cc1ccccc1)C(=O)N[C@H]1CCCCNC(=N)NCCCN(C)CCCNC(=N)NCCCC[C@@H](C(=O)N2CCC[C@H]2C(N)=O)NC(=O)[C@H](CC(C)C)NC(=O)[C@H](CC(C)C)NC(=O)[C@H](C)NC(=O)[C@H](Cc2c[nH]c3ccccc23)NC(=O)[C@H](Cc2ccc(O)cc2)NC(=O)[C@H](CCC(=O)O)NC1=O)[C@@H](C)O,"E3 ubiquitin-protein ligase Mdm2 (MDM2, Homo sapiens, UniProt Q00987)","protein-protein interaction, inhibitor, TR-FRET",,0.1 µM,,98%
OCC1OC(n2cnc3c(NCc4ccc(Br)s4)ncnc32)C(O)C1O (stereo not drawn),"Adenosine receptor A2a (ADORA2A, Homo sapiens, UniProt P29274)","ligand displacement, radioligand",,10 µM,,71%
C=CCN(CC=C)C(=O)n1ccnn1,Apeh,"serine hydrolase activity, inhibitor, competitive gel-based ABPP",mouse T-cell proteome,"1 µM, 30 min, 37 °C",,< 50%
O=C1CO[C@H](CNC(=O)C2(c3ccc(Cl)cc3)CC2)CN1C1Cc2ccccc2C1,"XCR1 (Homo sapiens, UniProt P46094)","β-arrestin recruitment, antagonist",,1 µM,,13%
O=C(CC1CC2CCC1C2)NCCNC(=O)Cn1c(=O)[nH]c(=O)c2ccccc21 (stereo not drawn),TNKS,"enzyme activity, inhibitor",,0.104 µM,,83%
CCN(CC)C(=O)n1ccnn1,Apeh,"serine hydrolase activity, inhibitor, competitive gel-based ABPP",mouse T-cell proteome,"1 µM, 30 min, 37 °C",,< 50%
COc1ccc(S(=O)(=O)N2CCc3ccccc3C2)cc1N1CCN(C(=O)c2ccc(F)cc2C(F)(F)F)CC1,TACR2,"ligand displacement, radioligand",,1 µM,,13.7%
CC(C)c1ccccc1OS(=O)(=O)Oc1cccc(C(=O)NO)c1,HDAC11,,,0.5 µM,,9%
O=C(Nc1cccc(N2CCOCC2)c1)c1cc(-c2ccccc2)n(-c2ccccc2)n1,Genome polyprotein NS2B-NS3 protease,reporter gene,HeLa,12.5 µM,,49 ± 13%
CC(=O)c1cnc(N)nc1N1CC[C@H]1c1nn2ccc(Cl)c2c(=O)n1-c1ccccc1,TACR2,"ligand displacement, radioligand",,10 µM,,12%
C[Si](C)(C)C[C@H](CN)CC(=O)O,"Neuropeptide Y receptor type 1 (NPY1R, Homo sapiens, UniProt P25929)","ligand displacement, radioligand",,250 µM,,-4%
COCC(=O)N1CCc2cc(-c3csc(NC(=O)c4cc(OC)cc(OC)c4)n3)ccc21,"Thyroid hormone receptor beta (Rattus norvegicus, UniProt P18113)",,rat,10 µM,,10%
O=C1c2sc(-c3ccc(N4CCC(F)C4)nc3F)nc2CCN1c1cccnc1 (stereo not drawn),"Cannabinoid receptor 2 (CNR2, Homo sapiens, UniProt P34972)","ligand displacement, radioligand",,1 µM,,-27%
NCc1ccc(CNC(=O)c2cc(-c3ccccc3)n(-c3ccccc3)n2)cc1,Genome polyprotein NS2B-NS3 protease,reporter gene,HeLa,12.5 µM,,39%
O=C1c2sc(-c3ccc(N4CCC(CO)CC4)nc3F)nc2CCN1c1cccnc1,"Melanocyte-stimulating hormone receptor (Mc1r, Mus musculus, UniProt Q01727)","ligand displacement, radioligand",,1 µM,,-6%
Brc1ccccc1-c1nnc(CSc2nnnn2-c2ccccc2)o1,"Alpha-1D adrenergic receptor (ADRA1D, Homo sapiens, UniProt P25100)","ligand displacement, radioligand",,10 µM,,-10%
Cn1sc(Nc2c(Cl)ccc3ncccc23)c(C#N)c1=O,TNKS,"enzyme activity, inhibitor",,10 µM,,2%
C=CC(=O)Nc1cccc(-c2cnc3[nH]cc(C(=O)NC(C)(C)C)c3n2)c1,"Protein kinase C zeta type (PRKCZ, Homo sapiens, UniProt Q05513)","enzyme activity, inhibitor",,0.1 µM,,-9%
O=C(Nc1ccc(N2CCNCC2)cc1)c1cc(-c2ccccc2)n(-c2ccccc2)n1,Genome polyprotein NS2B-NS3 protease,"enzyme activity, fluorogenic AMC substrate",,50 µM,,53%
"CC(=O)C12NC(C)(C)CC1(C)C(=O)C1=C2c2c(c3c4n2C(C)(C)CC2=C4C4(CC(C)(C)NC(C)(C4)C2=O)CC3(C)C)C(=O)C(C)(C)N1 (single isomer, unassigned; (-))","Potassium voltage-gated channel subfamily A member 2 (KCNA2, Homo sapiens, UniProt P16389)","ion current, inhibitor, patch clamp",HEK-293T,10 µM,,77.9%
O=C(NC1CCC1)[C@H](Cc1c[nH]c2ccccc12)NC(=O)[C@H](CCCCNC(=S)Nc1ccc(F)c(O)c1F)NS(=O)(=O)c1cccc(F)c1,SIRT5,"enzyme activity, inhibitor",,100 µM,,61%
CN(C)C/C=C/C(=O)Nc1ccc2nc(NCCCCCN(C)C)nc(NCCCCCCN(C)C)c2c1,"RNA 5'-monophosphate methyltransferase (BCDIN3D, Homo sapiens, UniProt Q7Z5W3)","enzyme activity, inhibitor, radiometric",,50 µM,,91%
Cc1cc(C(=O)NCCNC(=O)c2cccc(COc3ccccc3C(N)=O)c2)n[nH]1,TNKS,"enzyme activity, inhibitor",,50 nM,,100%
O=C(c1cc(-c2ccccc2)n(-c2ccccc2)n1)N(Cc1ccccn1)CC1CCCO1 (stereo not drawn),Genome polyprotein NS2B-NS3 protease,reporter gene,HeLa,12.5 µM,,3%
CCCCCCCCCCCCCC(=S)NCCCC[C@H](NS(C)(=O)=O)C(=O)N[C@H](C)C(=O)N[C@@H](CCCNC(=N)N)C(N)=O,SIRT5,"enzyme activity, inhibitor",,100 µM,,< 5%
O=C(c1cc(-c2ccccc2)n(-c2ccccc2)n1)N1CCN(Cc2ccccn2)CC1,Genome polyprotein NS2B-NS3 protease,"enzyme activity, fluorogenic AMC substrate",,50 µM,,11%
CC(C)Cn1c(SCC(=O)N2CCc3ccccc3C2)nc2cc(Cl)ccc2c1=O,"Histamine H4 receptor (HRH4, Homo sapiens, UniProt Q9H3N8)","ligand displacement, radioligand",,10 µM,,-15%
C=CC(=O)N1Cc2nc(-c3cc(-c4cc(Cl)cnc4Cl)c(F)cc3F)n(-c3ccncn3)c2C1,"Receptor-interacting serine/threonine-protein kinase 3 (RIPK3, Homo sapiens, UniProt Q9Y572)","cell-free assay, inhibitor",,1 µM,,2.2%
Cc1cc(C(C)(C)C)ccc1OS(=O)(=O)Oc1cncc(C(=O)NO)c1,HDAC11,,,10 µM,,18%
CC1Cc2ccccc2N1C(=O)CN1CCN(Cc2ccccc2)CC1 (stereo not drawn),"D(1A) dopamine receptor (DRD1, Homo sapiens, UniProt P21728)",radioligand binding,,"concentration not given, added: [3H]SCH23390",,35.1%
O=C(NO)c1cc(F)cc(OS(=O)(=O)Oc2ccc(Br)cc2)c1,HDAC11,,,5 µM,,43%
CCn1cc(C(=O)O)c(=O)c2c(N)c(F)c(NC3CCCCC3)cc21,"Cyclin-dependent kinase 4, with cyclin D2 (CDK4, Homo sapiens, UniProt P11802)",kinase activity,,"0.1 µM, added: ATP at Km",,20.4%
COc1cc(-c2cn(C)c(=O)c3cnccc23)cc(OC)c1CN(C)C,"PHIP, BD2 (Homo sapiens, UniProt Q8WWQ0)",,,1 µM,,-16.8%
O=C(c1cc(-c2ccccc2)n(-c2ccccc2)n1)N1CCc2nc[nH]c2C1,Genome polyprotein NS2B-NS3 protease,"enzyme activity, fluorogenic AMC substrate",,50 µM,,20%
N#C/C(=C\c1ccc(-c2cc(Cl)ccc2Cl)o1)C(=O)Nc1cccc2ncccc12,SIRT5,"enzyme activity, inhibitor",,100 µM,,15%
O=C(Nc1cccc(CNc2ncccn2)c1)c1cc(-c2ccccc2)n(-c2ccccc2)n1,Genome polyprotein NS2B-NS3 protease,"enzyme activity, fluorogenic AMC substrate",,50 µM,,67%
CCCCCCCCCCCCCCCC(=O)N[C@@H](CCCCN)C(=O)N[C@@H](CCCCN)C(=O)N[C@@H](CO)C(=O)N[C@@H](CCCNC(=N)N)C(=O)N[C@@H](C)C(=O)N[C@@H](CC(C)C)C(=O)N[C@@H](Cc1ccccc1)C(N)=O,"Proteinase-activated receptor 4 (F2RL3, Homo sapiens, UniProt Q96RI0)","platelet aggregation, ex vivo LTA",human,"0.3 mg/kg, 24 h or discharge, added: AYPGKF 160 µM",reference: baseline,8%

# Repeated from above:
SMILES,target,assay,test system,conditions,scale,inhibition
O=C(Nc1cccc(CNc2ncccn2)c1)c1cc(-c2ccccc2)n(-c2ccccc2)n1,Genome polyprotein NS2B-NS3 protease,"enzyme activity, fluorogenic AMC substrate",,50 µM,,67%
C[Si](C)(C)C[C@H](CN)CC(=O)O,"Neuropeptide Y receptor type 1 (NPY1R, Homo sapiens, UniProt P25929)","ligand displacement, radioligand",,250 µM,,-4%
CC(C)Cn1c(SCC(=O)N2CCc3ccccc3C2)nc2cc(Cl)ccc2c1=O,"Histamine H4 receptor (HRH4, Homo sapiens, UniProt Q9H3N8)","ligand displacement, radioligand",,10 µM,,-15%
Cc1nc2c(F)cc(-c3nc(Nc4ccc(CNC(=O)CCCCCCC(=O)NO)cc4)ncc3F)cc2n1C(C)C,"Serine/threonine-protein kinase ATR (ATR, Homo sapiens, UniProt Q13535)",kinase activity,,1 µM,,0%
Cc1ccc(-c2nn(-c3ccc(S(C)(=O)=O)cc3)cc2/C=N/N=C2/NC(=O)CS2)cc1,"Epidermal growth factor receptor (EGFR, Homo sapiens, UniProt P00533)","kinase activity, inhibitor",,100 µM,,92.6%
